Results from different studies.
Parts stem from different laboratories: compare values within a part only. Changes are numbered by the printed parent chain.

Set 1 — technique: Sort-seq; item: YFP reporter; medium: E. coli; setting: PhoQ-PhoP variant library; together with: 10 µM Mg2+; relative to: high Mg2+ state; direction: higher = stronger signaling; endpoint: fold induction
Substance: PhoQ, residues 284 288 289 292 302 303 TNASYF
PhoP, residues 12 14 15 18 19 AYFRS (Escherichia coli, UniProt P23836): 3.48
PhoP, residues 12 14 15 18 19 SFCSL (Escherichia coli, UniProt P23836): 11
PhoP, residues 12 14 15 18 19 HHYTI (Escherichia coli, UniProt P23836): 11.6

Set 2 — target: CCNE1, cyclin fold, Cln2 fusion (human); technique: yeast growth competition, sequencing; medium: yeast; setting: weak parent motif; relative to: not given; direction: higher = stronger binding; endpoint: normalised enrichment score
Parent: MICAL3 docking peptide (human); LQLRRQLSFSEDS
LQFRRQLSFSEDS [L3F]: 3.65
LQNRRQLSFSEDS [L3N]: -0.0182
LQLRRQLQFSEDS [S8Q]: 0.536
LQLRRQLSDSEDS [F9D]: -0.312
LQLFRQLSFSEDS [R4F]: 0.473
LQLRRQLSFSMDS [E11M]: 0.784
LQLYRQLSFSEDS [R4Y]: 0.167
LQLRRQLDFSEDS [S8D]: 0.911
LCLRRQLSFSEDS [Q2C]: 1.57
LQLRRQLFFSEDS [S8F]: 1.19
LQLRRQLVFSEDS [S8V]: 0.687
LQLRRQLSFSWDS [E11W]: 0.592
LFLRRQLSFSEDS [Q2F]: 0.936
LQLRRQLSFSEVS [D12V]: 1.61
LQLRRQLSFSQDS [E11Q]: 0.942
LILRRQLSFSEDS [Q2I]: 0.926
LQLRRQLHFSEDS [S8H]: 0.896
LQLRRQRSFSEDS [L7R]: 0.0117
LQLRRQLSFSFDS [E11F]: 0.555
LQLRRQLSFSEAS [D12A]: 1.3
LQLSRQLSFSEDS [R4S]: 0.33
LQLRRQLSFTEDS [S10T]: 0.796
LQLRRQLSHSEDS [F9H]: -0.38
LQLRRQLSFSHDS [E11H]: 0.173
LGLRRQLSFSEDS [Q2G]: 0.892

Set 3 — technique: DHFR PCA, deep sequencing; medium: yeast; together with: (+)-ABA 0 µM; relative to: wild-type fitted maximum; direction: higher = stronger binding; endpoint: relative binding score
Target: ABI1, truncated, D143A, DHFR fusion (Arabidopsis thaliana)
Setting: methotrexate growth selection, single substitutions
Parent: PYL1, truncated, DHFR fusion (Arabidopsis thaliana); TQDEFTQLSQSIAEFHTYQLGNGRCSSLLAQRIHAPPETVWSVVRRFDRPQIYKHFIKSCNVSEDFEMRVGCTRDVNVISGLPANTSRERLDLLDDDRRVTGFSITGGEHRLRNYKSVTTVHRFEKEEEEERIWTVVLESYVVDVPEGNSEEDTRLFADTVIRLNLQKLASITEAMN; partner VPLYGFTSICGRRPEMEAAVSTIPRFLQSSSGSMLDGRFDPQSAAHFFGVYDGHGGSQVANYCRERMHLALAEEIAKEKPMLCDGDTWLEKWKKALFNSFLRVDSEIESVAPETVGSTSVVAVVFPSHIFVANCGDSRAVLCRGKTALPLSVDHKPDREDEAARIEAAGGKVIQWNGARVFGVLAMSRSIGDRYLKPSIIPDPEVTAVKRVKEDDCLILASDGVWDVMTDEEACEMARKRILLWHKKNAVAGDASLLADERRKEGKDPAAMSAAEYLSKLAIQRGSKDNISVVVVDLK
V121C: -0.589%
E14K: 11.5%
I133W: 12.6%
R98G: 1.9%
V137H: 6.78%
V62S: -2.68%
S9I: 21.1%
E38P: 5.85%
L93R: 1.98%
S11G: 0.923%
L138E: 8.26%
V118W: 2.54%
Q51L: -1.41%

Set 4 — target: FOSL1, bZIP domain (human); technique: DHFR protein complementation; medium: yeast; relative to: wild-type JUN-FOS pair; direction: higher = stronger binding; endpoint: binding fitness
Setting: single substitutions, most at no-binding floor
Parent: JUN, bZIP domain (human); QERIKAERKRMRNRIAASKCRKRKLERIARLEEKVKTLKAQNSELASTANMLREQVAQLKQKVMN; partner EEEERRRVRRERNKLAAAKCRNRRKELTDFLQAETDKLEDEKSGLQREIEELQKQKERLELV
K34N: -0.603 natural log
S43L: -0.409 natural log
K34V: -0.716 natural log
V56S: -1.24 natural log
L45Y: -1.07 natural log
L45N: -1.46 natural log
A57R: -0.482 natural log
V35R: -0.573 natural log
R30E: -0.0653 natural log
T37C: -0.484 natural log
R53G: -1.25 natural log

Excerpt of the above (set 3):
I133W: 12.6%
R98G: 1.9%
V137H: 6.78%
V62S: -2.68%
S9I: 21.1%
E38P: 5.85%
L93R: 1.98%
S11G: 0.923%
